Assay results from different studies.
ABCB1: ATP-dependent translocase ABCB1 (ABCB1, Homo sapiens, UniProt P08183)
UniProt P08183, sequence (whole entry, looked up): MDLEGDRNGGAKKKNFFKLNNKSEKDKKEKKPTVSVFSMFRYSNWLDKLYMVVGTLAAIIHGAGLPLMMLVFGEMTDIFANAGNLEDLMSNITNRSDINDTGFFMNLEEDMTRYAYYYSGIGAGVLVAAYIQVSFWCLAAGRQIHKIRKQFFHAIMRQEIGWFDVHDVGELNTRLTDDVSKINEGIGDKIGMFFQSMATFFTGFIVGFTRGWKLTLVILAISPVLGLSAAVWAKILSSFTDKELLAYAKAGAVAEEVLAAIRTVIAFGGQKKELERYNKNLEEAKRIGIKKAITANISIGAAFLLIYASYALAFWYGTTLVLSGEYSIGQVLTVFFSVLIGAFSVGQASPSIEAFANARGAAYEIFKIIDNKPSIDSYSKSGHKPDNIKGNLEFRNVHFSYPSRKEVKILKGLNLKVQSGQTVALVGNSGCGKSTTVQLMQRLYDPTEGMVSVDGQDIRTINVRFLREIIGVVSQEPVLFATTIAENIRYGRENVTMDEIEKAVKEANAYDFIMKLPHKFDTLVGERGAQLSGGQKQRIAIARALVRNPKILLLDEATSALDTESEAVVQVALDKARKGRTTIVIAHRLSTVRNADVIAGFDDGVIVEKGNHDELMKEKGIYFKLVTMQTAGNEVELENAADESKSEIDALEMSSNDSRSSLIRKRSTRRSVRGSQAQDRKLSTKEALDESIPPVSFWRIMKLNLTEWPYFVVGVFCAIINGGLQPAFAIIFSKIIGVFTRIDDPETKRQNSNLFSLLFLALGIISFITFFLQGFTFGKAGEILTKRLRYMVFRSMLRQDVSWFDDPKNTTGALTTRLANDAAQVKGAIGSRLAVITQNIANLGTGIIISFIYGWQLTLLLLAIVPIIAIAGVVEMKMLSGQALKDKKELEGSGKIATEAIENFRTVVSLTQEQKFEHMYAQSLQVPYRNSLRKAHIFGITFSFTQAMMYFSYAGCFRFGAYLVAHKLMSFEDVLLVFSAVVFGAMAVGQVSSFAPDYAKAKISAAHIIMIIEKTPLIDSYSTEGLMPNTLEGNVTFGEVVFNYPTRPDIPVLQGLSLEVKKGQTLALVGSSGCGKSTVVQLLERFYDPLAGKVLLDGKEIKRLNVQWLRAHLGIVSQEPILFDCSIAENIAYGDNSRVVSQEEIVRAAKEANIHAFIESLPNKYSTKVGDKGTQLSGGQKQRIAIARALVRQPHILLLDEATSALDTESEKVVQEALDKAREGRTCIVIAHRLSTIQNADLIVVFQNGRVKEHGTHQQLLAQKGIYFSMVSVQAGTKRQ
UniProt P08684, sequence (whole entry, looked up): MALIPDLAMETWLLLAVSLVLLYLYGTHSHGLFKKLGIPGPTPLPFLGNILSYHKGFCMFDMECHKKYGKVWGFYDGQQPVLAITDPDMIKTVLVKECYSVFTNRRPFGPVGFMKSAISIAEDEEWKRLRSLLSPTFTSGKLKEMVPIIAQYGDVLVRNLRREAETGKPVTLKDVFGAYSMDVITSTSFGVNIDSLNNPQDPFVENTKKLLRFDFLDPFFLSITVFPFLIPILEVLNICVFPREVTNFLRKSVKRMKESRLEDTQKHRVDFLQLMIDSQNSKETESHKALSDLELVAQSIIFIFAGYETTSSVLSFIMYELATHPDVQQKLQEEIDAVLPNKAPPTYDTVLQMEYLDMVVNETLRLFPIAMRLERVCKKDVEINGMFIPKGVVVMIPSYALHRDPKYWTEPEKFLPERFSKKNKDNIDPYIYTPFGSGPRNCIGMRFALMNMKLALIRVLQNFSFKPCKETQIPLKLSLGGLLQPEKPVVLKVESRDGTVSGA

The stability bias of CN1[C@H]2CC[C@@H]1[C@@H](C(=O)O)[C@@H](OC(=O)c1ccccc1)C2 is reported as -9.67% (rat, whole blood; 10 nM, 4 freeze-thaw cycles).
With Cc1ncc2n1-c1ccc(Cl)cc1C(c1ccccc1F)=NC2 the Cmax was 8.03 ng/mL (Cytochrome P450 3A4 (CYP3A4, Homo sapiens, UniProt P08684); human, plasma; oral, 2 mg, day 1, alone, arithmetic mean).
For COc1cccc(-c2n[nH]c(SCc3ccccn3)n2)c1OC, “revertant colonies per plate” read 10 (Salmonella typhimurium; Ames test, plate incorporation; TA1537; 0.063 mg/plate, without S9).
The revertant ratio of Cc1cc(C(=O)NC(C)(C)COc2cccc3c2C(N)=NS(=O)(=O)N3)cc(C)n1 is reported as 1.3 (Salmonella typhimurium; Ames test, initial; TA98; 500 µg/plate; reference: solvent control).
With CCCOc1ccc(C(=O)CCN2CCCCC2)cc1 the CC50 was 31.6 µM (African green monkey cells; 5 days).
CN1CC[C@]23c4c5ccc(O[C@@H]6O[C@H](C(=O)O)[C@@H](O)[C@H](O)[C@H]6O)c4O[C@H]2[C@@H](O)C=C[C@H]3[C@H]1C5 has a stability bias of 5.22% (rat whole blood; 500 nM, 4 months, -80 °C).
With O=c1ccc2ccccc2o1 the chance response was 0.05% (NHEK; cell count; concentration not given, 6 h, pH2AX and pH3 panel).
For COc1cc2c(cc1OC)C(c1cccc(Cl)c1)=NN=C(C)C2, the CC50 was greater than 100 µM (African green monkey cells; 5 days).
CN1CC[C@]23c4c5ccc(O)c4O[C@H]2[C@@H](O[C@@H]2O[C@H](C(=O)O)[C@@H](O)[C@H](O)[C@H]2O)C=C[C@H]3[C@H]1C5 has a stability bias of 2.18% (rat, whole blood; 1000 nM, 4 h, room temperature, bench-top storage).
With CC(CN(C)C)CN1c2ccccc2Sc2ccccc21 (stereo not drawn) the CC50 was 21.4 µM (African green monkey cells; 5 days).
For CCc1ccc(CC/C=C/c2ccc3c(c2)C(=O)CC3)cc1, “LDH serum activity” read 570 U/L (Sprague-Dawley rat, female; oral, 30 mg/kg/day, 14 days).
CCOC(=O)c1c(CSc2ccccc2)n(C)c2cc(Br)c(O)c(CN(C)C)c12 has an inhibition of 92.3% (ABCB1; transport, inhibitor; 100 µM, 5 (unit not given), pH 7, with: NMN).
CC(C)CC(=O)OC[C@H]1O[C@@](C#N)(c2ccc3c(N)ncnn23)[C@H](O)[C@@H]1O: “Papp B to A” 1.9 ×10⁻⁶ cm/s (ABCB1; Caco-2; 90 µM, 2 h).
CCCC(C(=O)OCCN(CC)CC)(c1ccccc1)c1ccccc1 gave a CC50 of 24 µM (African green monkey cells; 5 days).
The stability bias of CC(=O)Oc1ccc2c3c1O[C@H]1[C@@H](OC(C)=O)C=C[C@H]4[C@@H](C2)N(C)CC[C@@]341 is reported as -7.67% (rat whole blood; 500 nM, 4 h, room temperature).
With C[C@]1(CO)Cc2ncn(-c3ccc(C#N)c(Cl)c3)c2C(=O)O1 the Cmax was 432 nM (human; oral, 10 mg, fasted, adjusted geometric mean).
For Cc1cc2cc(Oc3ccnc(Nc4cccc(CS(=O)(=O)NCCN(C)C)c4)n3)ccc2[nH]1, the CC50 was 4.9 µM (African green monkey cells; 5 days).
For COC(=O)[C@H]1[C@@H](OC(=O)c2ccccc2)C[C@@H]2CC[C@H]1N2, the stability bias was 8.23% (rat whole blood; 500 nM, 4 freeze-thaw cycles).
Cc1c(-c2ccccc2)oc2c(C(=O)OC(C)(C)CN3CCCCC3)cccc2c1=O gave a CC50 of 63.1 µM (African green monkey cells; 5 days).
COC(=O)[C@H]1[C@@H](OC(=O)c2ccccc2)C[C@@H]2CC[C@H]1N2C has a stability bias of 0.77% (rat, whole blood; 1000 nM, 4 h, room temperature, bench-top storage).
CC[C@H]1C[N@@]2CC[C@H]1C[C@H]2[C@H](O)c1ccnc2ccc(OCCC(C)C)cc12 gave a CC50 of 11.4 µM (African green monkey cells; 5 days).
COc1cc2c(Oc3ccc4[nH]c(C)cc4c3F)ccnc2cc1OCC1(N)CC1 — result for “grade 1 or 2 Hyperthyroidism”: 2.9% (paediatric recurrent refractory sarcoma; concentration not given, whole group).
CO[C@H]1C[C@@H]2CC[C@@H](C)[C@@](O)(O2)C(=O)C(=O)N2CCCC[C@H]2C(=O)O[C@H]([C@H](C)C[C@@H]2CC[C@@H](OC(=O)NCCOCCOCCOCCOCCOCCOCCOCCOCCC(=O)N3CCc4cc(Cn5nc(-c6ccc7oc(N)nc7c6)c6c(N)ncnc65)ccc4C3)[C@H](OC)C2)C[C@@H](O)[C@H](C)/C=C(\C)[C@@H](O)[C@@H](OC)C(=O)[C@H](C)C[C@H](C)/C=C/C=C/C=C/1C: “treatment-related fatigue incidence” 4% (dose-escalation trial; patients with advanced solid tumours; intravenous, all doses weekly, grade ≥3).
O=C1c2c(O)c(=O)ccn2N([C@@H]2c3ccccc3SCc3c2ccc(F)c3F)[C@@H]2COCCN12 has a plasma concentration of 11.1 ng/mL (BALB/c mice, plasma; oral, 15 mg/kg baloxavir marboxil, 10 h).
The induction factor of O=[N+]([O-])c1ccc(N2CCN(CCC(O)c3ccc(F)cc3)CC2)c(C(F)(F)F)c1 (stereo not drawn) is reported as 0.7 (Salmonella typhimurium; genotoxicity, SOS/umu test; TA1535/pSK1002; 0.125 mg/mL, 4 h, without S9, full range).
For C#C[C@]1(O)CC[C@H]2[C@@H]3CCC4=CCCC[C@@H]4[C@H]3CC[C@@]21C, the CC50 was 10.5 µM (African green monkey cells; 5 days).
CN1CC[C@@H](c2c(O)cc(O)c3c(=O)cc(-c4ccc(C(F)(F)F)cc4Cl)oc23)[C@@H]1CO: “related pneumonitis discontinuations” 3 cases (human, relapsed/refractory hematologic malignancies; oral, dose not given, of 9 patients discontinued).

A few entries again:
For Cc1cc2cc(Oc3ccnc(Nc4cccc(CS(=O)(=O)NCCN(C)C)c4)n3)ccc2[nH]1, the CC50 was 4.9 µM (African green monkey cells; 5 days).
For COC(=O)[C@H]1[C@@H](OC(=O)c2ccccc2)C[C@@H]2CC[C@H]1N2, the stability bias was 8.23% (rat whole blood; 500 nM, 4 freeze-thaw cycles).
